# Results from different studies.
# Parts stem from different laboratories: compare values within a part only. Changes are numbered by the printed parent chain.

# Sample 1 — technique: RNAcompete; form: RNA; matrix: in vitro; tested at: 20 nM; notes: 7-mer, probes averaged, single round; reference: mean of 7-mers; direction: higher = stronger binding
# Target: PABPC1L2, full length, GST fusion (mouse, UniProt A0ABA7IW68)
# Residues (chain): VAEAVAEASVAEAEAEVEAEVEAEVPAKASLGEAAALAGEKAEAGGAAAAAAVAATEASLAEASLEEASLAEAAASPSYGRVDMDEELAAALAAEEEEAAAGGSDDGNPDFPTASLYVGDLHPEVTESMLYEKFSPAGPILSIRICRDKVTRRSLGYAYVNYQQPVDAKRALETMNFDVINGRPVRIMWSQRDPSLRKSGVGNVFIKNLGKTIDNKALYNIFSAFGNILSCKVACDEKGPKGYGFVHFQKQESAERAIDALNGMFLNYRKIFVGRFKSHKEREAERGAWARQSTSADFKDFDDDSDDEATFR
Strand,7-mer Z-score
GAGGCGC,-0.0971
CAUGCCA,-0.184
GAGCAUG,0.00254
GUAUCGA,-0.126
AUGCGAU,-0.0609
CUAAUAC,-0.171
CCCGCGC,-0.427
AUCGCGC,-0.249
CAAACCG,-0.00108
UCCAAAG,0.0478
CCAUCCU,-0.374
UGUAGGC,-0.0645
AUGAAAC,0.173
UUGACGG,-0.0464
GGCUGUA,-0.00652
UGGCCAA,-0.0953
ACGAACC,-0.0989
CACUCCU,-0.273
UGCCCGG,-0.449
AGCCUUC,-0.445
AUCUGCA,-0.0264
GCUGCGU,-0.287

# Sample 2 — technique: aptamer microarray, sandwich; form: DNA with 2'F-ANA; matrix: in vitro; tested at: 200 nM; together with: Cy3 exosite-II aptamer, 400 nM; direction: higher = stronger binding; strand: GGTTGGTGTGGTTGG
# Target: Prothrombin, mature alpha-thrombin (F2, Homo sapiens, UniProt P00734)
# Notes: whole 15-mer aptamer, many near background
Modification,mean fluorescence intensity
2'F-ANA at 5 6 9 10 11 12 13 14 15,57.3 a.u.
2'F-ANA at 4 6 7 9 12 15,420 a.u.
2'F-ANA at 1 2 4 7 8 9 10 14,50.8 a.u.
2'F-ANA at 3 4 5 11 12 13 15,108 a.u.
2'F-ANA at 1 3 6 7 8 12,630 a.u.
2'F-ANA at 3 7 11 13 15,972 a.u.
2'F-ANA at 1 2 3 6 7 10 11 14 15,53.9 a.u.
2'F-ANA at 2 3 5 8 9 13 14,52.1 a.u.
2'F-ANA at 1 2 4 6 8 9 11 15,102 a.u.
2'F-ANA at 2 6 7 8 9 10 12 14 15,112 a.u.
2'F-ANA at 5 12 15,193 a.u.
2'F-ANA at 1 4 6 8 10 11 12 15,64.6 a.u.
2'F-ANA at 1 2 3 4 6 7 10 12 15,90.1 a.u.
2'F-ANA at 1 6 7 9 10 11 13 14,46.9 a.u.
2'F-ANA at 1 2 5 8 9 11 12 14 15,55.3 a.u.
2'F-ANA at 4 6 7 9 10 13 14,56.3 a.u.
2'F-ANA at 1 2 3 4 5 11 12 13 15,74.4 a.u.
2'F-ANA at 1 2 4 8 10 11 13,62.2 a.u.
2'F-ANA at 2 3 5 6 8 10 13 15,51.5 a.u.
2'F-ANA at 3 4 6 9 11 12 13,562 a.u.

# Sample 3 — technique: RNA Bind-n-Seq; form: RNA; matrix: in vitro; tested at: 100 nM; reference: input RNA pool; direction: higher = stronger binding
# Target: RING finger protein unkempt homolog, zinc fingers 1-6, SBP tag (UNK, Homo sapiens, UniProt Q9C0B0, residues 30-357)
# UniProt Q9C0B0, sequence (30-357, looked up): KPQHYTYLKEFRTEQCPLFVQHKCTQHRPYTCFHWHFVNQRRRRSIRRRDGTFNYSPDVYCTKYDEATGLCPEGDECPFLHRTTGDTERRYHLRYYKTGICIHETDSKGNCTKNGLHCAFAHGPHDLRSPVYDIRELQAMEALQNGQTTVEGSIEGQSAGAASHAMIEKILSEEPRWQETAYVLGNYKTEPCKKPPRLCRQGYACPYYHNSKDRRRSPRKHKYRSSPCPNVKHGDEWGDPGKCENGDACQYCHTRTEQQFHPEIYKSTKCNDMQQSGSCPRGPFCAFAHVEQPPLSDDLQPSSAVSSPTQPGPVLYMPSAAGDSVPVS
# Notes: RNA with constant flanks, vertebrate orthologous sites, ends assumed
# All sequences stand within: GGGAGUUCUACAGUCCGACGAUC … CAACAGAGGAUUGAGCAUCA
Strand,bound/input enrichment [ratio]
AAAAUGCCUUCUGUUCCAUUAGGAAAAACAAAUGUAGUUCCCCCCAGUCUAAAACUUUAAUAGCUAUUUUUGAAAUGAAAAUGUUUAGAUUUUGUAAAUCAGCUGUUUCCACUACACAAC,0.746
GCAAUGAAAAAACAGCCCUCCUCCCAGCCCCCAUUUCACUAGGAGAUACAAACAUUAACGUAGAAGAGCAAUUUAACUCAAUAAAUUUAUCUUUUCAGGAUGAUCCAGACUCCAGUACCA,0.988
UGACCCUUCCCCUCAAAAGUAGAACUUUUUCAAAUGGUAUCACCAUCUCUUCUAAAAGUUUAGCAAUAGUAGAAGAAAAUGCUAAUGAGAUUAGGAAAUUCUGCUCAUUAUUCUGCAAAC,0.617
CAGCCAACUCCCUGAUCGGCCGGGCCGCCCACAUCGCCGUGCUCGAUUCUGAGAUCUUCCUGGAGAAGUUCUUCCUAGUUGCGGGCCUCAAGUUCUUUCAGUAGAACUGUGGCAGGAUCA,0.887
UUUUUUUUAAUUUAAUUUUUCCCUUUUUUUUUGGGGGGGGGUCAAGUUUGCUCUACCAAAUAGUGAUCGUAACAAAUUUGAUCUGUUUUGGAUGUUACCAUAGUGAGAUGCAAUUCUAUA,3.93
AGGGAGUCUGGGUACGGGUGAGCAUUAACUUAUAAAGAAAUGAAAUGCUAAAAAUCCUAUUAGUACUAAGUUUAGUGGGAGAAUUUAAACCCCUUUUACAUAACUCUAAAACGAAAACCC,0.591
UAAGAUUUGGAUCCUGGAGCCAAACCAAGGGGUUUGAAAGUAAAGAGAUUUGUGAAAUGCCAGCACACACAGCUGCAAGACUGCGCCACUUCUAGCUGCUGUGUUCAGGUGUUUAUUACA,0.393
AAAUUCCCCCAUUGUCACUGAGAACCACCAAAUCUGACUUUUACAUUUGGUCUCAGAAUUUAGGUUCCUGCCCUGUUGGGUUUUUUUUUGUUUUUUUAAACCGUUUUCAAAAGUUCUUAA,0.67
UAUAAUUAUGAAAUUCUAACGGAUUUUUAAUGUUUAAUUUCCCCUGACAUAUAGAGACUUUCUUUUUUUUUCCAGGCAGAUAAUUCAGAGUGUGCGAGUGUGUGUGCACAUGUUACAAAG,0.542
UGGGGACCAGUUCUCCGACUCGGCUCAGUAGUGGAGACAACAGGCAGAAUGACACCUGUAUAGAAAAAGCAGAAGUUCAAUCAUGUAAAGCACAUGCUGCCGGUGGUCCAGGCUCUAAGG,0.155
GUCUAGAGAGGGGUGAAACGAACAUAUCCGAAUAAAGAAAUGCAAUGCUGAAAGUCCUAUCAGUACUAAGGUCAGCUGGAGAAUUUAAAGAAGCCUCUCGUAGUAAUUCUAAAAUGAAAA,0.665

# Sample 4 — technique: DHFR PCA, dose-response; matrix: yeast; notes: Hill fit, mean, not affinity; together with: (+)-ABA, dose series; direction: lower = more sensitive
# Target: ABI1, truncated, D143A, DHFR fusion (Arabidopsis thaliana, UniProt P49597)
# Starting sequence: PYL1, truncated, DHFR fusion (Arabidopsis thaliana, UniProt Q8VZS8); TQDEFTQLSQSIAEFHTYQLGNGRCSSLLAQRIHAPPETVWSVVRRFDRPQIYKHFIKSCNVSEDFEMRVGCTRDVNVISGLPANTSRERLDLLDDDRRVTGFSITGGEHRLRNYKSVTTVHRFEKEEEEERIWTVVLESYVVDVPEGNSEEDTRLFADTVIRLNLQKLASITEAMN
Change,ABA EC50
E139L,33.9 µM
T86I,94.6 µM
L138Q,155 µM
A35G,49.1 µM
C60L,84.6 µM
M176Y,3.7 µM
T6M,5.12 µM
T86K,7.07 µM
K126N,1.36 µM
S26D,59.2 µM
S42F,65.5 µM
A84E,522 µM
Q19P,3.55 µM
V70K,12.1 µM
E139A,47 µM
I162S,709 µM
D95E,60.1 µM
I52W,12.2 µM
D3M,8.2 µM
S59F,26.3 µM
L93Y,3.96 µM
A30S,1.4 µM
V118A,89.4 µM
E152P,16.9 µM

# Sample 5 — target: CCND3, cyclin fold, Cln2 fusion (human); technique: yeast growth competition, sequencing; matrix: yeast; notes: weak parent motif; reference: not given; direction: higher = stronger binding
# Starting sequence: E2F1 docking peptide (human); PPVKRRLDFETDH
Change,normalised enrichment score
PPVKRRLDNETDH [F9N],0.111
PPVKRRLSFETDH [D8S],0.479
PPVKRRLDFEMDH [T11M],0.584
PPVKRRLDFECDH [T11C],0.443
PPKKRRLDFETDH [V3K],0.0281
PPVKRWLDFETDH [R6W],0.143
PPVKRRLDFLTDH [E10L],-0.0439
PPMKRRLDFETDH [V3M],-0.0356
PPVKRRLDFCTDH [E10C],0.465
PPVKRRLDFTTDH [E10T],0.0345
PIVKRRLDFETDH [P2I],0.254
PPVKGRLDFETDH [R5G],0.18
PPVKRRLQFETDH [D8Q],-0.0665
PPVKRRSDFETDH [L7S],-0.207
PPPKRRLDFETDH [V3P],0.308
PPVKRRLDRETDH [F9R],-0.00684
